Assay results collected from several papers.
Every numbered part comes from another study and shows a few of its results, in no order.
UniProt Q9Y6M4, sequence (whole entry, looked up): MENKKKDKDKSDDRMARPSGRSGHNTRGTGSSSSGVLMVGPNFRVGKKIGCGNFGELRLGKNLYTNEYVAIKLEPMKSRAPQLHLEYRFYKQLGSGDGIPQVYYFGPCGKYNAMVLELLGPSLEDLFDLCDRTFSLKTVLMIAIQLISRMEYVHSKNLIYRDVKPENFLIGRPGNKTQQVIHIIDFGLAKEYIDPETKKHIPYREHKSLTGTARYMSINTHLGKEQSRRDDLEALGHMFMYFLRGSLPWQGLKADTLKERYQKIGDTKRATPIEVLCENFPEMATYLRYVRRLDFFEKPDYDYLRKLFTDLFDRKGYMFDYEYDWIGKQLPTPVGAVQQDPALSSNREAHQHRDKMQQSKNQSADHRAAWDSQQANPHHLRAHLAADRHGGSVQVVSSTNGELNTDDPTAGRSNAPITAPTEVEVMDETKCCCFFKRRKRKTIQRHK
UniProt Q99683, sequence (whole entry, looked up): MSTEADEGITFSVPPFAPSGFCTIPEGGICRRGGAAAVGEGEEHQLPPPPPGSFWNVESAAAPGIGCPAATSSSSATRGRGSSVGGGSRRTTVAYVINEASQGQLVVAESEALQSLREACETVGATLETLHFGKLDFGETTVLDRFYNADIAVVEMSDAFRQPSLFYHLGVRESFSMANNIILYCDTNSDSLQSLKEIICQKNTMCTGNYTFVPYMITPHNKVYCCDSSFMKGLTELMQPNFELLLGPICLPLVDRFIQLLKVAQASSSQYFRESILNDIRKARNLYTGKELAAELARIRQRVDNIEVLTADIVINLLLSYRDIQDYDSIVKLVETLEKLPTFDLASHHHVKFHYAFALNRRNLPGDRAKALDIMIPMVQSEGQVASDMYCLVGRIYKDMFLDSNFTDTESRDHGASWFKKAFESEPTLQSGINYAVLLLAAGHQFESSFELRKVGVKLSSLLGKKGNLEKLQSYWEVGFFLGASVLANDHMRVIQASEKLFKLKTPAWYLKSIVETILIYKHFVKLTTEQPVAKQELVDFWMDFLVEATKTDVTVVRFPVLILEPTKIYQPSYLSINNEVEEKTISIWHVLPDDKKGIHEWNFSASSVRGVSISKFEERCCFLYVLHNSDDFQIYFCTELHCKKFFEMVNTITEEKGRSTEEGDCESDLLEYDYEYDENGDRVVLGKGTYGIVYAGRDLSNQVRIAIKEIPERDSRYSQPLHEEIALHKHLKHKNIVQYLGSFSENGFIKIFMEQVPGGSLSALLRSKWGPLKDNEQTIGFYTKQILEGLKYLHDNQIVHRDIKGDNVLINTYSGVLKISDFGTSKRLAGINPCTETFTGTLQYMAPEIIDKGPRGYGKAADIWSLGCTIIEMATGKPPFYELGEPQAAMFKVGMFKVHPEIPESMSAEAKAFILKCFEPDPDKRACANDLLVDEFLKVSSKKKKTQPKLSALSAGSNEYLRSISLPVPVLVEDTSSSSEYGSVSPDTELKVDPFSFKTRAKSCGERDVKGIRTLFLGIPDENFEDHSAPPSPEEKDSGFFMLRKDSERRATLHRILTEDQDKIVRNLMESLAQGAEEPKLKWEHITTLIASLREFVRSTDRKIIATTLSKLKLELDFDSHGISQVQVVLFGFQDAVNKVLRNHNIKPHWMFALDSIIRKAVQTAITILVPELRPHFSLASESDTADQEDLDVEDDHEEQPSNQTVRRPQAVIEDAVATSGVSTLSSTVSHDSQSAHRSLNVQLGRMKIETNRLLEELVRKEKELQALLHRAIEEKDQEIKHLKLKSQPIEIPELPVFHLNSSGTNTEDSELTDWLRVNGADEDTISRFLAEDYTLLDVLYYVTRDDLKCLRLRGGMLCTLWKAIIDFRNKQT
UniProt P27361, sequence (whole entry, looked up): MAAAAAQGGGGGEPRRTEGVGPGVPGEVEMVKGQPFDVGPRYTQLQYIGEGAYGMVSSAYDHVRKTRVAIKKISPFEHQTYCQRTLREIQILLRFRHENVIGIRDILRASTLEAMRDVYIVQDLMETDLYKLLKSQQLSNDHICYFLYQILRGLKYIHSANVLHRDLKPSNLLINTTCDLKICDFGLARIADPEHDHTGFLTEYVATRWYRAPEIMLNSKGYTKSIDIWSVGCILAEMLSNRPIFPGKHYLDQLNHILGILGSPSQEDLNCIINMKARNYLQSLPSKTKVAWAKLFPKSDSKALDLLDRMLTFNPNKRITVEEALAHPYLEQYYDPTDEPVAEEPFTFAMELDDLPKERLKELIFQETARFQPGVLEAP
UniProt Q5S007, sequence (whole entry, looked up): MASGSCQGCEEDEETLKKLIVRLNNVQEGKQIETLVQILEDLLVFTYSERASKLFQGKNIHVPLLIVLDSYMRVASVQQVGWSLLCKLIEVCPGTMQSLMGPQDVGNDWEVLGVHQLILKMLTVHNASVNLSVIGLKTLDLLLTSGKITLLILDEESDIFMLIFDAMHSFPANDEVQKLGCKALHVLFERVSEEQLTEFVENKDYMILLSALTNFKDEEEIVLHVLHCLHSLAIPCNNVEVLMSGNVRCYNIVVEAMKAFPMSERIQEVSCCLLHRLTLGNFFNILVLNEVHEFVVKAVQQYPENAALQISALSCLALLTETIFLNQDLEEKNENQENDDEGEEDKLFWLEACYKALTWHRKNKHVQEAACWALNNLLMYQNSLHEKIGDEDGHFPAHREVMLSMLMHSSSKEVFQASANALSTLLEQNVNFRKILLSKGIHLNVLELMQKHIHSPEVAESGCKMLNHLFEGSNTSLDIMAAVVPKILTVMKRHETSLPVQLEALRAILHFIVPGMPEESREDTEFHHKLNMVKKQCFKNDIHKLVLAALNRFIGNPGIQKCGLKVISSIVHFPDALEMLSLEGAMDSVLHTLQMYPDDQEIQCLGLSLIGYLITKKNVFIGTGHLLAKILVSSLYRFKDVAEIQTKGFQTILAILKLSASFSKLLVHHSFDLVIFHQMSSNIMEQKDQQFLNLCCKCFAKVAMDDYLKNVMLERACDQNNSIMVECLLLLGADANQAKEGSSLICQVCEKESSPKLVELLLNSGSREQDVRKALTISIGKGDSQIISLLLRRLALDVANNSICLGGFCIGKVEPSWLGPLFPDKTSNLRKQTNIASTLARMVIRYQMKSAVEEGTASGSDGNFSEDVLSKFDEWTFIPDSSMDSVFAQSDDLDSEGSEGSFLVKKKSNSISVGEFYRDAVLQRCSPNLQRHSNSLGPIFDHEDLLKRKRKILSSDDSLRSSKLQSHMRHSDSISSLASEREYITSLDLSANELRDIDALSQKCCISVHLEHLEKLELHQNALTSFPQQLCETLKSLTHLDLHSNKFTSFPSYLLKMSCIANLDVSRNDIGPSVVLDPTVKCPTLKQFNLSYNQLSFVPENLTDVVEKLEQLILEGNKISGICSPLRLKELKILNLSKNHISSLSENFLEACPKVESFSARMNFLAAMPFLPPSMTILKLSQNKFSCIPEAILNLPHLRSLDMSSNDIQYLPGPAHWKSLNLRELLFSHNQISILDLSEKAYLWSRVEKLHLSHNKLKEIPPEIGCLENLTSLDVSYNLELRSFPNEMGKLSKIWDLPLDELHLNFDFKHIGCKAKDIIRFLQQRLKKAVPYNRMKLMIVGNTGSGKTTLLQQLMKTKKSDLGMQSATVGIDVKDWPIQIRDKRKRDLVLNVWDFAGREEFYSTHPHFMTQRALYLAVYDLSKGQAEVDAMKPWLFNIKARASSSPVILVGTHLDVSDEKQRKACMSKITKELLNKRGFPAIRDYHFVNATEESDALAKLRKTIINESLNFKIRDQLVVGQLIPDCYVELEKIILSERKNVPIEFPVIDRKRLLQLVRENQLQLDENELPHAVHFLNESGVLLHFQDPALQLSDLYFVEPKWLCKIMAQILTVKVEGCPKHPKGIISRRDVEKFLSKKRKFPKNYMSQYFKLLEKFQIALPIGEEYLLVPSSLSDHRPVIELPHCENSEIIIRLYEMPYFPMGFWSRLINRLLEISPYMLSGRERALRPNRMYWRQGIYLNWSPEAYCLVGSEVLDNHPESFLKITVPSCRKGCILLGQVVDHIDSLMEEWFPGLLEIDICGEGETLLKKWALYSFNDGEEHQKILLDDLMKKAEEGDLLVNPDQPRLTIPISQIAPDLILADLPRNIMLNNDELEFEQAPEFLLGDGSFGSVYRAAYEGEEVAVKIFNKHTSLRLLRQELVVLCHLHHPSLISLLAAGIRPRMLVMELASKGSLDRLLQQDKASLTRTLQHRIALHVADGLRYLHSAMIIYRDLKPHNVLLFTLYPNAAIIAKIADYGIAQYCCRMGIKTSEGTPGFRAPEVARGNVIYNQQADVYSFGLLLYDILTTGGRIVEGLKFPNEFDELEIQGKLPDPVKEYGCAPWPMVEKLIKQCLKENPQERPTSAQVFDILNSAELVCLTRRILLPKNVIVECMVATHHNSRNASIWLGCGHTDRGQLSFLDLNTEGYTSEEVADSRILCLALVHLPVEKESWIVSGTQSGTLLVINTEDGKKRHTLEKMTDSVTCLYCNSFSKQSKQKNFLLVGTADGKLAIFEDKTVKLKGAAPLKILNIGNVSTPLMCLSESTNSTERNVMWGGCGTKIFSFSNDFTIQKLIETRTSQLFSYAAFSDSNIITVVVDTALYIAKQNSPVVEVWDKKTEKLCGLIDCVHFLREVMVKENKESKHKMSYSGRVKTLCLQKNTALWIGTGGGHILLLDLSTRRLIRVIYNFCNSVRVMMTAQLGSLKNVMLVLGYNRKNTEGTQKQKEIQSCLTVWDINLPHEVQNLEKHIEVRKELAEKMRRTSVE
UniProt P49137, sequence (whole entry, looked up): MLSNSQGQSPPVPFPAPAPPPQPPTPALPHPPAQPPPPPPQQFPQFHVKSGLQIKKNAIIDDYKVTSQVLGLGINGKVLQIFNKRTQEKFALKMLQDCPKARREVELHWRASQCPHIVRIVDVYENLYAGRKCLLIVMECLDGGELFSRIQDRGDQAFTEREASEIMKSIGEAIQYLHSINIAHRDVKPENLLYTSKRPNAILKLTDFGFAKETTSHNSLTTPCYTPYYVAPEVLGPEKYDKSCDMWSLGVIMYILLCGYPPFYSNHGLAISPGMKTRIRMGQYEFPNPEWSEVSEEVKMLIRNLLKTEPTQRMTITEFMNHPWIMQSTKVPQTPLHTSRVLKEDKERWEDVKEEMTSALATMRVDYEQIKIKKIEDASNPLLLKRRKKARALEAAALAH

Study 1
Structure (SMILES): COc1cc2ncnc(Nc3cccc(Cl)c3)c2cc1OC
Read-out: enzyme activity
Mode: inhibitor
Concentration: 0.5 µM
Reference: control
For ACVR1B (Homo sapiens, UniProt P36896): remaining activity read 98%.
For EPHA3 (Homo sapiens, UniProt P29320): remaining activity read 97.9%.
TAOK2 (Homo sapiens, UniProt Q9UL54) — remaining activity: 96.1%.
For FGFR1 (Homo sapiens, UniProt P11362): remaining activity read 84.9%.
MAPK3 (Homo sapiens, UniProt P27361) — remaining activity: 96.4%.
The remaining activity was 87.8% (MST1R (Homo sapiens, UniProt Q04912)).
The remaining activity was 108% (ARAF (Homo sapiens, UniProt P10398)).
MAP3K5 (Homo sapiens, UniProt Q99683) — remaining activity: 106%.
It gave 85.4% for remaining activity (GRK7 (Homo sapiens, UniProt Q8WTQ7)).
MAPKAPK2 (Homo sapiens, UniProt P49137) — remaining activity: 98%.
CSNK1G3 (Homo sapiens, UniProt Q9Y6M4) — remaining activity: 92.4%.
For MERTK (Homo sapiens, UniProt Q12866): remaining activity read 76.9%.

Study 2
Host: human
Medium: microsomes or S9
Concentration: 2 µM
Time: 0.5 h
COc1cc(OC)c2[nH]c(C(=O)OCc3ncc(Cl)n3C)cc2c1 gave a remaining compound of 2.63%.
For COc1ccc(S(=O)(=O)[C@H]2CS(=O)(=O)C[C@@H]2NCc2ccc3c(c2)OCO3)cc1C, the remaining compound was 0.889%.
Cc1c(Cl)cccc1NC(=O)Cn1c2c(c(=O)n3nc(-c4ccccc4)nc13)CCC2 has a remaining compound of 36.5%.
COC(=O)c1ccc(C(F)(F)F)nc1OC(C)C(=O)Nc1ccccc1 (stereo not drawn) gave a remaining compound of 0.00816%.
COc1cc2c(cc1OC)CN(C(=O)COc1cn(C)c(C)cc1=O)[C@H](C(N)=O)C2 has a remaining compound of 95.5%.
For CCn1[nH]/c(=N\S(=O)(=O)c2ccc(C)cc2)c2cc3cccc(C)c3nc21, the remaining compound was 1.35%.

Study 3
SMILES: O=C(Nc1ccc(Oc2ccc(F)cc2)cc1)N1CCc2ncccc2[C@H]1c1ccc(F)cc1
Read-out: cell-free assay
Technique: competition with immobilised ligand
Concentration: 1 µM
For PIP5K1C (Homo sapiens, UniProt O60331): remaining binding read 96%.
For Ribosomal protein S6 kinase alpha-6, N-terminal kinase domain (RPS6KA6, Homo sapiens, UniProt Q9UK32): remaining binding read 91%.
For IKBKB (Homo sapiens, UniProt O14920): remaining binding read 100%.
The remaining binding was 76% (LRRK2 (Homo sapiens, UniProt Q5S007)).
It gave 100% for remaining binding (EIF2AK1 (Homo sapiens, UniProt Q9BQI3)).
CSNK1G3 (Homo sapiens, UniProt Q9Y6M4) — remaining binding: 80%.
It gave 68% for remaining binding (NTRK3 (Homo sapiens, UniProt Q16288)).
It gave 100% for remaining binding (PRKCI (Homo sapiens, UniProt P41743)).
It gave 94% for remaining binding (PLK4 (Homo sapiens, UniProt O00444)).
It gave 85% for remaining binding (TGFBR1 (Homo sapiens, UniProt P36897)).
MAPK1 (Homo sapiens, UniProt P28482) — remaining binding: 100%.
For RIOK1 (Homo sapiens, UniProt Q9BRS2): remaining binding read 100%.
The remaining binding was 92% (MUSK (Homo sapiens, UniProt O15146)).
The remaining binding was 93% (NEK2 (Homo sapiens, UniProt P51955)).

Study 4
Cell line: HH
Concentration: 2 µM
Time: 48 h
Reference: untreated
The viability of CN1CC[C@H](c2c(O)cc(O)c3c(=O)cc(-c4ccccc4Cl)oc23)[C@H](O)C1 is reported as 10.9%.
With CNC(=O)c1nn(C)c2c1C(C)(C)Cc1cnc(Nc3ccc(N4CCN(C)CC4)cc3)nc1-2 the viability was 56.9%.
CC1(C)CNc2cc(NC(=O)c3cccnc3NCc3ccncc3)ccc21 has a viability of 88.7%.
O=C(NCc1ccccc1)c1csc(Nc2ccncn2)n1 has a viability of 60.9%.
For CO[C@H]1C[C@@H]2CC[C@@H](C)[C@@](O)(O2)C(=O)C(=O)N2CCCC[C@H]2C(=O)O[C@H]([C@H](C)C[C@@H]2CC[C@H](n3cnnn3)[C@H](OC)C2)CC(=O)[C@H](C)/C=C(\C)[C@@H](O)[C@@H](OC)C(=O)[C@H](C)C[C@H](C)/C=C/C=C/C=C/1C, the viability was 51.6%.
Cn1cc(-c2ccc3ncc(Cc4ccc5ncccc5c4)n3n2)cn1 has a viability of 69.4%.
For Nc1nc(N)c2nc(-c3cccc(O)c3)c(-c3cccc(O)c3)nc2n1, the viability was 91.6%.

For quick reference, copied from above (study 3):
It gave 68% for remaining binding (NTRK3 (Homo sapiens, UniProt Q16288)).
It gave 100% for remaining binding (PRKCI (Homo sapiens, UniProt P41743)).
It gave 94% for remaining binding (PLK4 (Homo sapiens, UniProt O00444)).
